Results collected from several papers.
“And” joins repeats or separate records; there may be more than shown. Numbers after ± are the reported error. In brackets after ≈: the same amount, converted by molar mass.
Sequence of UniProt Q96S44 (whole entry, looked up): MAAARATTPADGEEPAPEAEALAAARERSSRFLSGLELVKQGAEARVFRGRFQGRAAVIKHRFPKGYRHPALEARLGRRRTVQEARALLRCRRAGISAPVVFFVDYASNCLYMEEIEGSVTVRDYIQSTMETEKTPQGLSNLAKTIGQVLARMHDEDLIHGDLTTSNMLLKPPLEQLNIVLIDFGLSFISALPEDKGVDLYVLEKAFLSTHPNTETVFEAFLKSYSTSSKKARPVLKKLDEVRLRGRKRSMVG
Sequence of UniProt O95136 (whole entry, looked up): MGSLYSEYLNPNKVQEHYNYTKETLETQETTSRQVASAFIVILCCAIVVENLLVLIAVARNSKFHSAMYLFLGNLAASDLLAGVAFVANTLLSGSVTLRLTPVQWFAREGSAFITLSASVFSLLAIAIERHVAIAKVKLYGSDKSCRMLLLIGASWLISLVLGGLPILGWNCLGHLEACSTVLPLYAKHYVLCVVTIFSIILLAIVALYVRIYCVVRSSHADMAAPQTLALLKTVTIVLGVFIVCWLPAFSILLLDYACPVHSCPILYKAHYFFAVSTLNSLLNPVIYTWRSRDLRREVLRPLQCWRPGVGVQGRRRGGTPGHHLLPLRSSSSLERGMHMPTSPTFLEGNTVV
Sequence of UniProt P08254 (whole entry, looked up): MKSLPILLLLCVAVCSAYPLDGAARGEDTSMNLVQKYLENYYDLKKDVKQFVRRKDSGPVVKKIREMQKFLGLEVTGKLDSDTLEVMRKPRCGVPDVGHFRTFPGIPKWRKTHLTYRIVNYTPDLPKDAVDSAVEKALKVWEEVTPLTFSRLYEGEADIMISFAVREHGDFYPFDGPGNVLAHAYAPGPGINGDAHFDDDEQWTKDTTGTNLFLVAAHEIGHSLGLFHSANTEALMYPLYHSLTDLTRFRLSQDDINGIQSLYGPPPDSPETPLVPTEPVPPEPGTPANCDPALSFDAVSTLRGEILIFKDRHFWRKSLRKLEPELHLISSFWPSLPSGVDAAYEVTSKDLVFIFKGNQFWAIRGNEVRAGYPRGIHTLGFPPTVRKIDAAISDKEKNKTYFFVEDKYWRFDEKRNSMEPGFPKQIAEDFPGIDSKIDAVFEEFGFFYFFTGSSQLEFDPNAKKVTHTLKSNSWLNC

Structure (SMILES) | tested on | assay | system | setting | how to read | quantity | value
Cn1cncc1-c1c(F)cncc1NC(=O)c1c(N)nn2cc(F)cnc12 |  |  | human patients | oral, dose not given, all doses |  | grade ≥3 creatinine increased | 4%
Cn1nccc1[C@]1(CNC(=O)c2ccc(F)c(F)c2-c2ccc(C(F)(F)F)cc2)NC(=O)NC1=O |  |  | dog | oral, 1.0 mg/kg |  | dose-normalised AUC | 68 kg·h/L
C[C@]1(CO)Cc2ncn(-c3ccc(C#N)c(Cl)c3)c2C(=O)O1 |  |  | healthy humans | concentration not given, food-effect part total |  | drug-related Hyperhidrosis incidence | 8.3%
COc1cc(Nc2ncc(F)c(Nc3ccc4c(n3)NC(=O)C(C)(C)O4)n2)cc(OC)c1OC | Stromelysin-1 (MMP3, Homo sapiens, UniProt P08254) |  |  | metalloproteinase-3 |  | IC50 | > 10 µM
C=CC(=O)Nc1cc(Nc2nccc(Nc3cc(Cl)c(F)cc3C(C)(C)O)n2)c(OC)cc1N1CC[C@@H](N(C)C)C1 |  | treatment-emergent adverse events | human | oral, 100 mg, phase I clinical trial |  | incidence of blood creatinine increased | 11.1%
CN1CC[C@@H](c2c(O)cc(O)c3c(=O)cc(-c4ccc(C(F)(F)F)cc4Cl)oc23)[C@@H]1CO |  | item: rectal abscess | B-cell malignancies | oral, 100 mg, grade 3 to 4, intermittent dosing |  | patients with adverse event | 0%
CN(C(=O)n1cnc(-c2ccc[n+]([O-])c2)c1)C1CCCCC1 |  |  | Wistar rat, hippocampus | oral, 10 mg/kg/day, 72 h, repeated 5 days |  | concentration | 10 ± 1.7 ng/g
C[C@@H]1OC(=O)NN=C1c1ccc(-c2ccc(F)cc2)c(C(F)(F)F)c1 |  | phase I trial, item: non-cardiac chest pain | human patients | 10 mg load, 0.5 mg daily, worst grade 1 |  | patients with TEAE | 100%
C[C@]1(O)C[C@@](N)(c2ccc(-c3nc4n(c3-c3ccccc3)COc3ccncc3-4)cc2)C1 |  |  | human, advanced or metastatic solid tumours | 16 mg once daily, dose-ranging cohort |  | patients with grade ≥3 TEAE | 100%
CC(C)(O)c1cc(Nc2cc(Oc3cn(C4CC4)nc3C3CCOCC3)ccn2)ccn1 |  | Fatigue | advanced cancer patients, grade 4 glioma expansion | oral, 50 mg twice daily, all causality any grade |  | treatment-emergent adverse events | 23%
Cc1cccc(C)c1NC(=O)C1CCCCN1 (centres unmarked) |  | haematoxylin-eosin histology | rat, muscle around sciatic nerve | sciatic nerve injection, 30 mM, 4 days, median, scale 0 to 6 | direction not given | myotoxicity score | 1
O[C@H]1CCCN[C@@H]1CCCn1cnc2c(Cl)c(Cl)ccc21 |  |  | healthy human, plasma | oral, 150 mg, steady state, together with: nintedanib 150 mg |  | AUCtau | 1330 ng·h/mL
COc1ccc2c(c1)CN(C(=O)CCN1CCC(Cc3ccccc3)CC1)CC[S@@+]2[O-] |  |  | female beagle dogs, chronic AV block | intravenous, 3 mg/kg, before dosing |  | QTcF | 289 ± 11 ms
CC[C@H](C)[C@@H]1NC(=O)[C@@H]2CCCN2C(=O)[C@H](CC(C)C)NC(=O)[C@H](CC(C)C)NC(=O)CNC(=O)[C@@H](NC(=O)[C@@H](NC(=O)[C@H](CC(=O)O)NC(=O)CNC(=O)[C@@H](NC(=O)[C@H](C)NC(=O)CNC(=O)[C@H](CCCCN)NC(=O)[C@H](CC(C)C)NC(=O)[C@H](CC(C)C)NC(=O)[C@H](CCCCN)NC(=O)CNC(=O)[C@@H](NC(=O)[C@@H](N)CC(C)C)C(C)C)C(C)C)C(C)C)CSSC[C@@H](C(=O)O)NC1=O |  | RNA-seq, item: Saa3 mRNA | mouse traumatic brain injury, frontal cortex and hippocampus | dose not given | reference: TBI plus compound vs TBI | log2 fold change | -5.25
CCN1CCN(Cc2ccc(Nc3ncc(F)c(-c4cc(F)c5nc6n(c5c4)[C@H](C)CCC6)n3)nc2)CC1 |  |  | advanced solid tumour patients | dose not given, Phase Ia monotherapy |  | Hypercholesterolemia incidence, any grade | 62.5%
CC(C)(c1ccccc1)c1cc(-n2nc3ccccc3n2)c(O)c(C(C)(C)c2ccccc2)c1 |  | exposure assessment | human, age 16-21 years | foundation |  | mean daily dermal uptake | 0.41 ng/kg body weight/day
O=C(O)CCCOc1ccc(F)cc1-c1cc(-c2ccccc2C(F)(F)F)n(-c2ccccc2)n1 |  |  | male Crl:CD(SD) rats, spleen | intravenous, 25 µg/kg, 14 d |  | relative organ weight | 0.17 ± 0.02 g%
CC(C)CC(=O)OC[C@H]1O[C@@](C#N)(c2ccc3c(N)ncnn23)[C@H](O)[C@@H]1O |  |  | dog whole blood | 5 µM, 30 min |  | remaining compound | 47.2 ± 3.3%
O=C(Nc1ccccc1)C1CCN(C(=O)Oc2cccnc2)CC1 |  |  | healthy women | oral, 20 mg, 7 days |  | adverse event Rash | 7.1%
COc1c(CCC[P+](c2ccccc2)(c2ccccc2)c2ccccc2)cc2c(c1OC)OCO2.[I-] | PC-3 | SRB |  |  |  | GI50 | -6.02 log M
NCC(CS(=O)(=O)O)c1ccc(Cl)cc1 (centres unmarked) | de novo protein S23 | binding, NMR |  |  |  | Kd | 42 ± 17 µM
C[C@@H](NC(=O)N1C(=O)[C@H](Cc2ccnc(N)c2)[C@H]1C(=O)O)C1CCCCC1 |  |  | healthy adult Chinese volunteers | continuous intravenous infusion, 1.0 mg/kg/h, 5-day infusion, CTCAE 5.0 grading |  | incidence of infusion site pain | 0%
O=C(O)C[C@H](NC(=O)[C@H](CC(=O)O)NC(=O)[C@H](CC(=O)O)NC(=O)[C@H](CC(=O)O)NC(=O)[C@H](CC(=O)O)NC(=O)[C@H](CC(=O)O)NC(=O)[C@H](CC(=O)O)NC(=O)[C@H](CC(=O)O)NC(=O)[C@H](CC(=O)O)NC(=O)[C@H](CC(=O)O)NC(=O)[C@H](CC(=O)O)NC(=O)[C@H](CCCCNC(=O)c1ccc(C(=O)NCCOCCOB2BBBBBB3BBBB3B2)cc1)NC(=O)CN1CCN(CC(=O)O)CCN(CC(=O)O)CCN(CC(=O)O)CC1)C(=O)O [gallium-67 labelled] |  |  | ddY male mice, spleen | intravenous, 37 kBq, 3 h |  | tissue uptake | 0.04 %ID/g
CN(C)C1(CNC(=O)c2ccc3c(c2)CCN3C(=O)c2ccccc2)CCOCC1 |  |  | male C57BL/6 mice | intraperitoneal, 50 mg/kg, 120 min |  | brain concentration | 39 ng/g

Structure (SMILES) | tested on | assay | system | setting | how to read | quantity | value
C[C@H]1CN(c2n[nH]c3nc(N[C@H]4CC[C@H](NS(=O)(=O)CCC(F)(F)F)CC4)ncc23)CCO1 | TP53RK (Homo sapiens, UniProt Q96S44) | inhibitor, Kinobeads competition profiling |  | 20 µM | reference: vehicle | relative abundance | 1.11
COc1ccc(-c2c(-c3ccc(C#N)c(F)c3)nc(N3CCC(N)CC3)n(C)c2=O)cc1F |  | item: ≥1 grade 3-4 TRAE | neuroendocrine neoplasm patients | oral, 60 mg, dose expansion |  | grade 3-4 TRAE incidence | 44%
CNC(=O)c1cc(Oc2ccc(NC(=O)Nc3cc(C(C)(C)C)nn3-c3ccc4ncccc4c3)c(F)c2)ccn1 |  | viral cardiomyopathy, NCI CTC v3.0 | human patients | oral, all dose levels |  | related SAE | 2%
O=C1Nc2cc3[nH]nc(-c4ccncc4)c3cc2CN1Cc1ccccc1 |  | CTCAE v4.03 | advanced solid tumour patients | intravenous, 9.6 mg/kg, schedules 1/2 |  | patients with ≥1 TEAE | 100%
Cc1ccc(N=Nc2ccc3[nH]cc(CCN(C)C)c3c2)cc1 |  | light irradiation | solution | together with: light 385 nm |  | cis isomer at photostationary state | 87%
Cc1cccc(Cn2nc(C3CC3)c3c(NC(=O)c4cnc5cc(OCCN6CCN(C)CC6)ccn45)cccc32)n1 |  | CTCAE v4.03, item: decreased appetite | pancreatic ductal adenocarcinoma patients | oral, dose not given, together with: pembrolizumab IV every 3 weeks |  | all-cause adverse events | 33.3%
CCc1ccc(CC/C=C/c2ccc3c(c2)C(=O)CC3)cc1 |  |  | Sprague-Dawley rat, male, blood | oral, 30 mg/kg/day, 14 days |  | mean platelet volume | 11.3 fL
Cc1cc(C)c(CNC(=O)c2cc(Cl)c3c(c2C)O[C@@](C)([C@H]2CC[C@H](N(C)C)CC2)O3)c(=O)[nH]1 |  |  | relapsed/refractory NHL patients | dose not given, all TEAEs, safety set |  | grade 5 any TEAE incidence | 0%
COc1cccc(Oc2ccccc2NC(=O)CNC(=O)c2cccc3ccccc23)c1 |  |  | esterase-deficient SCID mice, male | oral, 100 mg/kg/day, 14 days, toxicity study |  | alkaline phosphatase | 59 U/L and 61 U/L and 87 U/L
CO[C@H]1C[C@@H]2CC[C@@H](C)[C@@](O)(O2)C(=O)C(=O)N2CCCC[C@H]2C(=O)O[C@H]([C@H](C)C[C@@H]2CC[C@@H](OC(=O)NCCOCCOCCOCCOCCOCCOCCOCCOCCC(=O)N3CCc4cc(Cn5nc(-c6ccc7oc(N)nc7c6)c6c(N)ncnc65)ccc4C3)[C@H](OC)C2)C[C@@H](O)[C@H](C)/C=C(\C)[C@@H](O)[C@@H](OC)C(=O)[C@H](C)C[C@H](C)/C=C/C=C/C=C/1C |  |  | patients with advanced solid tumours | intravenous, 10 mg weekly, any grade |  | vomiting incidence | 12.5%
CC[C@H](C)CCCCC(=O)N[C@@H](CCN)C(=O)N[C@H](C(=O)N[C@@H](CCN)C(=O)N[C@H]1CCNC(=O)[C@H]([C@@H](C)O)NC(=O)[C@H](CCN)NC(=O)[C@H](CCN)NC(=O)[C@H](CC(C)C)NC(=O)[C@@H](Cc2ccccc2)NC(=O)[C@H](CCN)NC1=O)[C@@H](C)O |  |  | critically ill survivors, plasma | intravenous, 2.1 mg/kg/day, median |  | Cmax steady state | 7800 ng/mL
COc1ccc(C[C@@H]2NC(=O)[C@H]([C@@H](C)O)NC(=O)[C@@H]3[C@@H]4CCN3C(=O)[C@@H]3Cc5cn(c6ccc(F)cc56)CCCCCCN(Cc5ccc(cc5)CCNC(=O)[C@]5(C)CCCN5C2=O)C(=O)CCC(=O)N[C@@H](C)C(=O)N[C@H](CNC(=O)CCCCC[N+](C)(C)C)C(=O)N[C@@H](Cc2cccc(c2)CNC(=O)CO4)C(=O)N3)cc1 |  | item: Dyspepsia | humans | concentration not given, Study-003 |  | participants with adverse event | 3.2%
COc1cc2c(Oc3ccc4[nH]c(C)cc4c3F)ccnc2cc1OCC1(N)CC1 |  |  | paediatric recurrent refractory sarcoma | 12 mg |  | bone pain incidence | 0%
CN1CCN(c2cc(-c3ccncc3)c(-c3ccc4ccccc4c3)nn2)CC1 | S1PR2 (Homo sapiens, UniProt O95136) | agonist, FLIPR |  | 12.5 µM |  | activation | 0.5%
C[C@@H]1COCCN1c1cc([C@]2(O)C[C@H]3CC[C@@H](C2)O3)c2cnn(-c3cc[nH]n3)c2n1 |  |  | NOD-SCID tumour-bearing mice | oral, 14 days, 2 days on 5 off weekly |  | MTD | 30 mg/kg
CC[C@H](C)[C@H](NC(=O)[C@H](C)NC(=O)[C@H](CCCCN)NC(=O)[C@H](CC(C)C)NC(=O)[C@H](C)NC(=O)[C@@H](NC(=O)[C@H](Cc1c[nH]cn1)NC(=O)[C@H](CC(C)C)NC(=O)[C@@H](NC(=O)[C@@H](NC(=O)[C@H](CCCCN)NC(=O)[C@H](C)NC(=O)[C@H](C)NC(=O)[C@H](CO)NC(=O)[C@H](CCCCN)NC(=O)[C@H](Cc1ccccc1)NC(=O)[C@@H](NC(=O)[C@H](CCCCN)NC(=O)[C@H](CC(C)C)NC(=O)[C@H](Cc1ccccc1)NC(=O)[C@H](CO)NC(=O)[C@H](CCCCN)NC(=O)[C@H](Cc1c[nH]c2ccccc12)NC(=O)[C@H](CCCCN)NC(C)=O)[C@@H](C)O)[C@@H](C)O)C(C)C)[C@@H](C)O)C(=O)N[C@@H](CO)C(=O)N[C@@H](CO)C(N)=O | Acinetobacter baumannii |  | IPM-R | 87 strains |  | MIC90 | 8 µg/mL (≈ 2.73 µM)
O=S(=O)(Nc1ccccc1)c1ccc(NC(=S)Nc2ccccc2)cc1 |  | item: ALT | male mouse, blood | oral, 20 mg/kg daily, 14 days |  | serum enzyme activity | 50.2 U/L
COc1ccc([C@@H]2CC(=O)c3c(O)cc(O)cc3O2)cc1O |  |  | male Sprague-Dawley rat, obese | oral, 100 mg/kg of neohesperidin, 12 to 24 h, after β-glucuronidase/sulfatase hydrolysis |  | urinary excreted amount, total | 9340 ± 344 ng
O.O.O.O.O.O.[Cl-].[Cl-].[Co+2] |  |  | rat male, urine | oral, 10 mg/kg single, day 3 |  | urinary cobalt creatinine-corrected | 0.0266 µg/µmol creatinine
COc1cc2c(cc1OC)CN(CCc1ccc(NC(=O)c3cccc4c(=O)c5cccc(OC)c5[nH]c34)cc1)CC2 |  |  | CD-1 mouse, male, plasma | intraperitoneal, 3 mg/kg |  | half-life | 7.12 h
CCCCCCCCCC(=O)N[C@@H](Cc1c[nH]c2ccccc12)C(=O)N[C@H](CC(N)=O)C(=O)N[C@@H](CC(=O)O)C(=O)N[C@@H]1C(=O)NCC(=O)N[C@@H](CCCNC(=O)CCC(=O)N2Cc3ccccc3-c3c(nnn3CCC[C@H](NC(=O)CCCCC[N+]3=C(C=CC4=CC(=CC=C5N(C)c6ccccc6C5(C)C)CCC4)C(C)(C)c4ccccc43)C(=O)NCCCCNC(=O)CCC(=O)N3Cc4ccccc4C#Cc4ccccc43)-c3ccccc32)C(=O)N[C@@H](CC(=O)O)C(=O)N[C@H](C)C(=O)N[C@@H](CC(=O)O)C(=O)NCC(=O)N[C@H](CO)C(=O)N[C@@H]([C@H](C)CC(=O)O)C(=O)N[C@@H](CC(=O)c2ccccc2N)C(=O)O[C@@H]1C |  |  | human plasma | 1 µM, up to 240 min, pH 7.4, 37 °C |  | half-life | > 4 h
CC1(C)[C@H](C(=O)O[C@H](C#N)c2cccc(Oc3ccccc3)c2)[C@@H]1C=C(Br)Br |  | item: CYP1A2 | human, age 1 year, recombinant human CYP1A2 | 0.1 µM |  | enzyme contribution to clearance | 0.14%
CC(=O)c1c(C)c2cnc(Nc3ccc(C4CCN(CCS(C)(=O)=O)CC4)cn3)nc2n(C2CCCC2)c1=O |  |  | human, plasma | oral, 25 mg once daily, day 21, multiple doses |  | Vd | 794 L
